# Measured values from different studies.
# Compare with care: the assays were run in different laboratories.
# Organism: Staphylococcus aureus
SMILES,test,system,setting,MIC
CC[C@H](C)[C@H](NC(=O)[C@H](CCCNC(=N)N)NC(=O)[C@H](CCCNC(=N)N)NC(=O)[C@H](CCCNC(=N)N)NC(=O)[C@H](CCCNC(=N)N)NC(=O)[C@H](CC(C)C)NC(=O)[C@H](CCCNC(=N)N)NC(=O)[C@H](CO)NC(=O)[C@@H](N)CO)C(=O)N[C@H](C(=O)N[C@@H](CC(C)C)C(=O)N[C@@H](CCCNC(=N)N)C(=O)N[C@@H](CCCNC(=N)N)C(=O)N[C@@H](CCCNC(=N)N)C(=O)N[C@@H](CCCNC(=N)N)C(=O)N[C@@H](Cc1ccccc1)C(=O)N[C@@H](CO)C(=O)N[C@@H](C)C(=O)N[C@@H](Cc1ccc(O)cc1)C(N)=O)C(C)C,broth microdilution,,"24 h, 37 °C",32 µM
CCCCCCC#Cc1cncc(-c2nnc(SCc3cc([N+](=O)[O-])cc([N+](=O)[O-])c3)n2CCCN)c1,broth microdilution,Mu50 MRSA VISA,"18 to 24 h, 37 °C",8 µg/mL
CC[C@H](C)[C@H](NC(=O)[C@H](CC(C)C)NC(=O)[C@H](CCCNC(=N)N)NC(=O)[C@@H](N)CCCNC(=N)N)C(=O)N[C@@H](CC(C)C)C(=O)N[C@H](C(=O)N[C@@H](CCCCN)C(=O)N[C@H](C(=O)NCC(=O)N1CCC[C@H]1C(=O)N[C@H](C(=O)N[C@H](C(=O)N[C@@H](Cc1ccc(O)cc1)C(=O)N[C@@H](CCCCN)C(=O)N[C@@H](Cc1ccc(O)cc1)C(=O)N[C@@H](Cc1ccccc1)C(=O)N[C@@H](CCCCN)C(=O)N[C@@H](CCCCN)C(=O)N[C@@H](CCC(N)=O)C(=O)N[C@@H](CC(C)C)C(=O)N[C@@H](CCCCN)C(=O)N[C@@H](CCCCN)C(=O)N[C@@H](CC(C)C)C(N)=O)[C@@H](C)CC)[C@@H](C)CC)[C@@H](C)O)[C@@H](C)O,,"CCARM 3095, methicillin-resistant, Mueller-Hinton broth",24 h,32 µM
CCOc1ccc2ccccc2c1C(=O)N[C@@H]1C(=O)N2[C@@H]1SC(C)(C)[C@@H]2C(=O)O,,"mecA−, antibiotic-susceptible",,1 µg/mL
Cc1ccc2[nH]c3c(c2c1)CCCC3NCCc1ccc(O)cc1 (stereo not shown),broth microdilution,SA113 ΔtarO,,> 16 µg/mL
CC[C@H](C)[C@H](N)C(=O)N[C@@H](CC(C)C)C(=O)NCC(=O)N[C@@H](CCC(=O)O)C(=O)N[C@H](C(=O)N[C@@H](Cc1c[nH]c2ccccc12)C(=O)N[C@@H](CCCCN)C(=O)NCC(=O)N[C@H](C(=O)N[C@@H](CCCCN)C(=O)N[C@@H](CC(=O)O)C(=O)N[C@H](C(=O)N[C@@H](CC(C)C)C(N)=O)[C@@H](C)CC)[C@@H](C)CC)[C@@H](C)CC,broth microdilution,"MRSA ATCC 33591, Mueller-Hinton broth","16 h, 37 °C",> 100 µM
CC[C@H](C)[C@H](NC(=O)[C@H](CCCCN)NC(=O)[C@H](CCCCN)NC(=O)[C@H](Cc1ccccc1)NC(=O)[C@@H](NC(=O)[C@@H](NC(=O)[C@H](CCCNC(=N)N)NC(=O)[C@H](Cc1ccccc1)NC(=O)[C@@H](NC(=O)[C@H](CCCCN)NC(=O)[C@H](CCCCN)NC(=O)[C@@H](N)CCSC)[C@@H](C)CC)C(C)C)[C@@H](C)CC)C(=O)N[C@@H](CC(C)C)C(=O)N[C@@H](CCCCN)C(=O)N[C@@H](CCCNC(=N)N)C(=O)N[C@@H](CC(C)C)C(=O)N[C@H](C(=O)N[C@H](C(=O)O)C(C)C)[C@@H](C)CC,broth microdilution,GU-1 MRSA,with: 2 mM CaCl2,8 µg/mL
CC[n+]1c(-c2ccccc2)c2cc(N)ccc2c2ccc(N)cc21,,1199B (NorA overexpressing),,16 µM
CC[C@H](C)[C@H](NC(=O)[C@H](CCCCN)NC(=O)[C@H](CC(=O)O)NC(=O)[C@H](CC(C)C)NC(=O)[C@@H](NC(=O)[C@H](CC(N)=O)NC(=O)[C@H](CC(C)C)NC(=O)[C@@H](NC(=O)[C@H](Cc1ccccc1)NC(=O)[C@H](CCCCN)NC(=O)[C@H](CCCCN)NC(=O)CNC(=O)[C@H](C)NC(=O)[C@H](CC(N)=O)NC(=O)[C@H](CCCCN)NC(=O)[C@H](Cc1ccccc1)NC(=O)[C@H](CC(N)=O)NC(=O)[C@H](CCC(=O)O)NC(=O)[C@H](Cc1c[nH]c2ccccc12)NC(=O)[C@H](CC(C)C)NC(=O)[C@@H](N)CO)[C@@H](C)CC)[C@@H](C)CC)C(=O)N[C@@H](CCCNC(=N)N)C(N)=O,,ATCC 6538,"overnight, 37 °C, with: 2 mM CaCl2",2 µM
CC[C@H](C)[C@H](NC(=O)CN)C(=O)NCC(=O)N[C@@H](C)C(=O)N[C@H](C(=O)N[C@@H](CC(C)C)C(=O)N[C@@H](CCCCN)C(=O)N[C@H](C(=O)N[C@@H](CC(C)C)C(=O)N[C@H](C(=O)N[C@H](C(=O)NCC(=O)N[C@@H](CC(C)C)C(=O)N1CCC[C@H]1C(=O)N[C@@H](C)C(=O)N[C@@H](CC(C)C)C(=O)N[C@H](C(=O)N[C@@H](CO)C(=O)N[C@@H](Cc1c[nH]c2ccccc12)C(=O)N[C@H](C(=O)N[C@@H](CCCCN)C(=O)N[C@@H](CCCNC(=N)N)C(=O)N[C@@H](CCCCN)C(=O)N[C@@H](CCCNC(=N)N)C(=O)N[C@@H](CCC(N)=O)C(=O)N[C@@H](CCC(N)=O)C(N)=O)[C@@H](C)CC)[C@@H](C)CC)[C@@H](C)O)[C@@H](C)O)C(C)C)C(C)C,,MRSA 43300,"24 h, 37 °C",2 µM
Cn1c(=O)ccc2ccc(F)c(CCNC[C@@H]3CN(c4cnc5c(n4)NC(=O)CO5)C(=O)O3)c21,,ATCC 29213,,0.008 µg/mL
CC[C@H](C)[C@H](NC(=O)[C@H](Cc1ccc(O)cc1)NC(=O)[C@@H](NC(=O)[C@H](Cc1ccc(O)cc1)NC(=O)[C@@H]1CCCN1C(=O)[C@@H](NC(=O)[C@H](C)N)[C@@H](C)CC)[C@@H](C)CC)C(=O)N[C@@H](Cc1c[nH]c2ccccc12)C(=O)N[C@@H](CCCNC(=N)N)C(=O)N[C@@H](CC(C)C)C(=O)N[C@@H](CC(C)C)C(=O)N[C@@H](CCCNC(=N)N)C(=O)N[C@@H](CCCCN)C(=O)NCC(=O)O,broth microdilution,ATCC 35556,"18 h, 37 °C",3.75 µM
CC[C@H](C)[C@H](NC(=O)[C@H](CCCNC(=N)N)NC(=O)[C@H](CCCNC(=N)N)NC(=O)[C@H](CCCNC(=N)N)NC(=O)[C@H](CCCNC(=N)N)NC(=O)[C@H](CCCNC(=N)N)NC(=O)[C@@H](N)CCCNC(=N)N)C(=O)N[C@@H](CO)C(=O)N[C@@H](Cc1ccccc1)C(=O)N[C@@H](CC(C)C)C(=O)NCC(=O)N[C@@H](CO)C(=O)N[C@@H](CCCCN)C(=O)N[C@@H](CCCCN)C(=O)N[C@@H](CCCCN)C(=O)N[C@@H](CCCCN)C(=O)N[C@@H](CCCCN)C(=O)N[C@@H](CC(C)C)C(=O)N[C@@H](CC(C)C)C(=O)N[C@@H](CCCCN)C(=O)N[C@@H](CCCNC(=N)N)C(N)=O,broth microdilution,ATCC 29213,highest value reported,64 µM
CC(C)C[C@@H](NC(=O)CNC(=O)[C@@H](CCCCN)NC(=O)[C@@H](CC(C)C)NC(=O)[C@@H](CCCCN)NC(=O)[C@@H](CCCNC(=N)N)NC(=O)[C@@H](CC(C)C)NC(=O)[C@@H](CC(C)C)NC(=O)[C@@H](CCCNC(=N)N)NC(=O)[C@H](N)CCCNC(=N)N)C(=O)N[C@H](CCCCN)C(=O)N[C@H](CCCCN)C(=O)N[C@H](Cc1ccc(O)cc1)C(=O)N[C@H](CC(C)C)C(=O)N[C@H](Cc1ccc(O)cc1)C(=O)N[C@H](Cc1ccccc1)C(=O)N[C@H](CCCCN)C(=O)N[C@H](CC(C)C)C(=O)N[C@H](CCC(N)=O)C(=O)N[C@H](CC(C)C)C(=O)N[C@H](CC(C)C)C(=O)N[C@H](CCCCN)C(=O)N[C@H](CCCCN)C(N)=O,,"KCTC 1621, Mueller-Hinton broth",with: 2.5 mM CaCl2,4 µM
CC(C)C[C@@H](NC(=O)[C@H](C)NC(=O)CNC(=O)[C@@H](NC=O)C(C)C)C(=O)N[C@@H](C)C(=O)N[C@@H](C(=O)N[C@H](C(=O)N[C@@H](C(=O)N[C@@H](Cc1c[nH]c2ccccc12)C(=O)N[C@H](CC(C)C)C(=O)N[C@@H](Cc1ccc2[nH]ccc2c1)C(=O)N[C@H](CC(C)C)C(=O)N[C@@H](Cc1c[nH]c2ccccc12)C(=O)N[C@H](CC(C)C)C(=O)N[C@@H](Cc1c[nH]c2ccccc12)C(=O)NCCO)C(C)C)C(C)C)C(C)C,broth microdilution,"MSSA1, methicillin-susceptible",,17 µM
CC[C@H](C)[C@H](NC(=O)[C@H](CC(C)C)NC(=O)[C@H](CCCNC(=N)N)NC(=O)[C@@H](N)CCCNC(=N)N)C(=O)N[C@@H](CCCNC(=N)N)C(=O)N[C@@H](CCCCN)C(=O)N[C@@H](CC(C)C)C(=O)N[C@@H](CCCCN)C(=O)NCC(=O)N[C@@H](CC(C)C)C(=O)N[C@@H](CCCCN)C(=O)N[C@@H](CCCCN)C(=O)N[C@@H](Cc1ccc(O)cc1)C(=O)N[C@@H](CC(C)C)C(=O)N[C@@H](Cc1ccc(O)cc1)C(=O)N[C@@H](Cc1ccccc1)C(=O)N[C@@H](CCCCN)C(=O)N[C@@H](CC(C)C)C(=O)N[C@@H](CCC(N)=O)C(=O)N[C@@H](CC(C)C)C(=O)N[C@@H](CC(C)C)C(=O)N[C@@H](CCCCN)C(=O)N[C@@H](CCCCN)C(N)=O,,"KCTC 1621, Mueller-Hinton broth",with: 2.5 mM CaCl2,8 µM
CC[C@H](C)[C@H](NC(=O)CN)C(=O)N[C@@H](C)C(=O)N[C@@H](CCCCN)C(=O)N[C@@H](Cc1ccccc1)C(=O)N[C@H](C(=O)N[C@@H](CCCCN)C(=O)N[C@@H](CCCCN)C(=O)N[C@H](C(=O)N[C@@H](C)C(=O)N[C@@H](CCCCN)C(=O)N[C@@H](C)C(=O)N[C@@H](CC(C)C)C(=O)N[C@@H](CCCNC(=N)N)C(N)=O)[C@@H](C)CC)[C@@H](C)CC,,"ATCC 29213, Mueller-Hinton broth","12 h, 37 °C",8 µg/mL
CC[C@H](C)[C@H](NC(=O)[C@H](CCCCN)NC(=O)[C@H](CCCCN)NC(=O)CNC(=O)[C@H](CCCCN)NC(=O)[C@H](CC(C)C)NC(=O)[C@H](CCCCN)NC(=O)[C@H](CCCNC(=N)N)NC(=O)[C@@H](NC(=O)[C@H](CC(C)C)NC(=O)[C@H](CCCNC(=N)N)NC(=O)[C@@H](N)CCCNC(=N)N)[C@@H](C)CC)C(=O)N[C@@H](Cc1ccc(O)cc1)C(=O)N[C@@H](CC(C)C)C(=O)N[C@@H](Cc1ccc(O)cc1)C(=O)N[C@@H](Cc1ccccc1)C(=O)N[C@@H](CCCCN)C(=O)N[C@@H](CC(C)C)C(=O)N[C@@H](CCC(N)=O)C(=O)N[C@@H](CC(C)C)C(=O)N[C@@H](CC(C)C)C(=O)N[C@@H](CCCCN)C(=O)N[C@@H](CCCCN)C(N)=O,,"CCARM 3090, methicillin-resistant, Mueller-Hinton broth",24 h,8 µM
CC[C@H](C)[C@H](NC(=O)CNC(=O)[C@H](C)NC(=O)[C@@H](NC(=O)[C@@H](NC(=O)[C@@H](NC(=O)[C@@H](NC(=O)[C@@H](NC(=O)[C@H](CC(C)C)NC(=O)[C@H](CC(C)C)NC(=O)[C@@H]1CCCN1C(=O)[C@H](Cc1c[nH]c2ccccc12)NC(=O)[C@@H](N)Cc1ccccc1)[C@@H](C)CC)[C@@H](C)O)[C@@H](C)O)C(C)C)C(C)C)C(=O)N[C@@H](CC(N)=O)C(=O)N[C@@H](CC(C)C)C(=O)N[C@@H](Cc1ccc(O)cc1)C(=O)N[C@@H](CCCNC(=N)N)C(=O)N[C@@H](C)C(=O)N[C@H](C(=O)N[C@@H](CCCNC(=N)N)C(=O)N[C@@H](CCCNC(=N)N)C(=O)N[C@@H](CCCCN)C(=O)O)[C@@H](C)CC,broth microdilution,"ATCC 29213, Mueller-Hinton broth","16 to 20 h, 37 °C",1.69 µM

# Excerpt of the above:
SMILES,test,system,setting,MIC
CC[C@H](C)[C@H](NC(=O)[C@H](CC(C)C)NC(=O)[C@H](CCCNC(=N)N)NC(=O)[C@@H](N)CCCNC(=N)N)C(=O)N[C@@H](CC(C)C)C(=O)N[C@H](C(=O)N[C@@H](CCCCN)C(=O)N[C@H](C(=O)NCC(=O)N1CCC[C@H]1C(=O)N[C@H](C(=O)N[C@H](C(=O)N[C@@H](Cc1ccc(O)cc1)C(=O)N[C@@H](CCCCN)C(=O)N[C@@H](Cc1ccc(O)cc1)C(=O)N[C@@H](Cc1ccccc1)C(=O)N[C@@H](CCCCN)C(=O)N[C@@H](CCCCN)C(=O)N[C@@H](CCC(N)=O)C(=O)N[C@@H](CC(C)C)C(=O)N[C@@H](CCCCN)C(=O)N[C@@H](CCCCN)C(=O)N[C@@H](CC(C)C)C(N)=O)[C@@H](C)CC)[C@@H](C)CC)[C@@H](C)O)[C@@H](C)O,,"CCARM 3095, methicillin-resistant, Mueller-Hinton broth",24 h,32 µM
CCOc1ccc2ccccc2c1C(=O)N[C@@H]1C(=O)N2[C@@H]1SC(C)(C)[C@@H]2C(=O)O,,"mecA−, antibiotic-susceptible",,1 µg/mL
